Assay results collected from several papers.
Numbered parts are unrelated; each lists some results of a single study.

Set 1
Target: RING finger protein unkempt homolog, zinc fingers 1-6, GST-SBP tag (UNK, Homo sapiens, UniProt Q9C0B0, residues 30-357)
Method: RNA Bind-n-Seq
Molecule type: RNA
Matrix: in vitro
Concentration: not given
Notes: RNA with constant flanks, human and mouse sites, ends assumed
Baseline: input RNA pool
Reading: higher = stronger binding
Constant ends, left off below: GGGAGUUCUACAGUCCGACGAUC … CAACAGAGGAUUGAGCAUCA
Construct (chain): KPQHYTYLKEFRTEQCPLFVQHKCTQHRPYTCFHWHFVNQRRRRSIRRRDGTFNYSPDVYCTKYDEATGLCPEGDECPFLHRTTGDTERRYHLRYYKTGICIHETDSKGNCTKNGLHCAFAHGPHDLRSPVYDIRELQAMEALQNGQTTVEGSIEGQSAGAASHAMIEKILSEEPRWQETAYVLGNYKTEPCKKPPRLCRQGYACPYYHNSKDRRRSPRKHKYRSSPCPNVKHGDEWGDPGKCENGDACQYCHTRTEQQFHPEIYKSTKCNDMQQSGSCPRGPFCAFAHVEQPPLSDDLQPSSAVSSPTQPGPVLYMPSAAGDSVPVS
Sequence	bound/input enrichment [ratio]
UCUGUCAAGAUCAAGAAAAAUAAGGACAACGUGAAGUUUAAAGUUCGAUGCAGCAGAUACCUUUACACCCUGGUCAUCACUGACAAAGAGAAGGCAGAGAAACUGAAGCAGUCCCUGCCC	0.112
AUGGAACAAGGAAAAUAAGGCCUAAGCCAGCAUCCCCAGGUUGCCACAGCCCAUCCUUCAUAGCAGGAAAAUAAGGCCUAAGCCAGCAUCCCCAGGUUGCCACAGCCCAUCCUUCAAGCA	0.0899
GUACUAAAAAAGAGAGUAACUCGGGAGUGUUGAGGCUUUGCGUGAAUGUCUGAGAUAGGGCCUGGCUCCACCCCAGGAAGGGAGGCCAACGUCACUAACACUGUAUGUGCAAAUGUCCGC	0.123
CCUCGAGCAGUAAAUGGAUUUUCCUGGCGUAAAACAAGCAAAUAUAUGCCUAGGGCUUCUGUAUGUAAUGUACUGUUGACUUGCUGCAAAGAUAAUGUGUGUCGUCUUUGGGUAGAGACA	0.196
UACAGAAGGAGCACCUCUCAAACCGUGCUUCAGGCUCUGAGAAAAGGAGCACAGGGGAAAUUAGUCUUGCUUUGGAUCCAAGCAAAUGCUGUCGGAGCAAUGAACUGGGACUUUGUGUGC	0.157
UACCAGUGUCUGCUGCAUAGAGCCUUACAUCUCCAGGAGCGGCUGCCCCCGAUUCAGCAGCACAUUUUGAAUAUGCUGGAUCCCCCCACUGAGAUGAAAGCAAAAUGUGAGAGUCCACUC	0.175

Set 2
Target: Histone acetyltransferase KAT6A, winged helix 2, GST fusion (KAT6A, Homo sapiens, UniProt Q92794, residues 85-181)
Method: protein binding microarray
Molecule type: double-stranded DNA, one strand shown
Matrix: in vitro
Concentration: not given
Notes: 8-mer, flanks averaged, mean of 2 arrays, mostly near background
Baseline: not given
Reading: higher = stronger binding
Target sequence (chain): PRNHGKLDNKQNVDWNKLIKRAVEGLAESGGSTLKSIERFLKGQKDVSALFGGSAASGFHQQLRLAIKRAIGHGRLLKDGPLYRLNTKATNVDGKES
Sequence	E-score
AGCCGTCA	0.0845
GGACGTAA	-0.27
AATTGATA	0.149
GTTCATGA	-0.0315
CGCTTCTA	-0.0245
ATCCCAAC	-0.0442
AGCGTCCC	-0.0932
GCCAGCTA	-0.0478
CCGCGGAC	0.116
CAAAACAA	-0.13
AACTTGCA	0.0104
AACTCAGA	0.124
ATCTTGAA	-0.0605
CCCGGGCC	0.236
GCTCAGGA	0.104
CAGTAAGA	-0.00231
GCTGGATA	0.0144
TCACTAGA	-0.0974
CATCCTGC	0.0213
GTAACTCA	-0.0294
AGGCATTC	-0.0231

Set 3
Target: Ras GTPase-activating protein-binding protein 1, RRM domain (G3BP1, Homo sapiens, UniProt Q13283)
Chain of UniProt Q13283 (whole entry, looked up): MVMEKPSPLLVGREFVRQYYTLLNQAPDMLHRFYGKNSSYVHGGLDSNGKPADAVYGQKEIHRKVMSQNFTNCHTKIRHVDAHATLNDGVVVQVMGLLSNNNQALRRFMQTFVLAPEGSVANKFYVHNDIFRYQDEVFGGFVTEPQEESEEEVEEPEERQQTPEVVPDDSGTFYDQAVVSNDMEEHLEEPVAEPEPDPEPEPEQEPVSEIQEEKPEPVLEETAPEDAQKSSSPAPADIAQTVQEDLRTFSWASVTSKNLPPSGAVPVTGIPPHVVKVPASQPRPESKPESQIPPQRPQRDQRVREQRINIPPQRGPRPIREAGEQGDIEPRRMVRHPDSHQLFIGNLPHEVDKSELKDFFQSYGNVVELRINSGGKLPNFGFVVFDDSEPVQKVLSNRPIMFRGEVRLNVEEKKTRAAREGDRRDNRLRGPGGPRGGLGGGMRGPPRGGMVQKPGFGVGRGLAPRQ
Method: RNA Bind-n-Seq
Molecule type: RNA
Matrix: in vitro
Concentration: 1 µM
Notes: whole 134-nt RNA, ends assumed
With: 150 mM KCl
Baseline: input library
Reading: higher = stronger binding
Constant ends, left off below: GGGAGUUCUACAGUCCGACGAUC … UGGAAUUCUCGGGUGUCAAGG
Sequence	log2 enrichment
UCCUGUGCUACACAUCGUAUGUACCGAAUCGGGGAAAAAAAGGGGUGGGGAAAAAGGGGAAAGUAUUAUGUUACGCCGUUCGGAUCUGCA	0.618
CAAGUCCUGUGCUACACAUCGUAUGUACCGAAUCGGGGUUUUGGUUUUGGUUUUGGAAAGUAUUAUGUUACGCCGUUCGGAUCUGCACUU	-0.507
UCAAGUCCUGUGCUACACAUCGUAUGUACCGAAUCGGGAGGGUUUUUGGGUGGGAAAGUAUUAUGUUACGCCGUUCGGAUCUGCACUUCC	0.663
CUGUGCUACACAUCGUAUGUACCGAAUCGGGAAAAAAAGGGAAAAAAAGGGAAAAAAAGGGGAAAGUAUUAUGUUACGCCGUUCGGAUCU	0.208
UCAAGUCCUGUGCUACACAUCGUAUGUACCGAAUCGGUUUGGAAAAAAAGGUGGAAAGUAUUAUGUUACGCCGUUCGGAUCUGCACUUCC	-0.184
CCUGUGCUACACAUCGUAUGUACCGAAUCGGGUUUUUUUGGUUUUUUUGGGGUUUUUUUGGAAAGUAUUAUGUUACGCCGUUCGGAUCUG	-0.432

Set 4
Target: Sal-like protein 4, full length isoform B (SALL4, Homo sapiens, UniProt Q9UJQ4-2, residues 1-616)
Method: universal PBM
Molecule type: double-stranded DNA, one strand shown
Matrix: in vitro
Concentration: not given
Notes: 8-mer, flanks averaged, mean of replicates
Reading: higher = stronger binding
Sequence	E-score
AATGGAAA	0.14
CCCGCTGA	-0.424
CCGGATCA	-0.191
CGCTCCTA	-0.0453
AAATGGAA	0.134
AGGTACCT	-0.147
GACTGGCC	-0.316
CGTCCATA	0.107
ACATAGGG	-0.0721
GCCTAAAC	-0.0596
ACACTCTA	0.104
CACCAGCA	-0.1
CACCCATC	0.105
GGCCTTTA	-0.0805
TGAGGGCA	-0.0939
AAGAGATA	0.167

Set 5
Target: RNA binding protein fox-1 homolog 2, RRM domain, GST-SBP tag (RBFOX2, Homo sapiens, UniProt O43251-10, residues 100-194)
Method: RNA Bind-n-Seq
Molecule type: RNA
Matrix: in vitro
Concentration: 365 nM
Notes: natural RNA segment, single round, ends assumed
Baseline: no-protein control
Reading: higher = stronger binding
Constant ends, left off below: GGGAGUUCUACAGUCCGACGAUC … UGGAAUUCUCGGGUGCCAA
Residues (chain): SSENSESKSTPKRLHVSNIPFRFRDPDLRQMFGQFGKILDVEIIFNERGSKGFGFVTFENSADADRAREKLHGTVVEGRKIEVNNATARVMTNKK
Sequence	RBNS enrichment (R)
UAAGACAGACACCUUGGAACUUUCAUUCGGAAAUUAGUCCCCGAAGUUUGAGAUAAGUCUUUUUUUGAAUUUUUUUUUCUCUGAUCUGCUUAAAAUGCAGAUUGGCUUUA	0.403
GAUUCACUCGUGUGCACGGAGGGGGUGCUCCAGAUGGGAAUCACACAGGGCUUUCUUCACUCUUGGUCUUCGUUUCUGAUCAAGUAAACACCAGCAGUUGUCAUUCAGUG	0.57
CGUUCCUCACUUUUCCCUUUUCAUUCCCACCCCCUAGACUUUGAUUUUACGGAUAUCUUGCUUCUGUUCCCCAUGGAGCUCCGAAUUCUUGCGUGUGUGUAGAUGAGGGG	0.999
AUGUCUUGGUUUUGGUUUAAUACCAAAUUUCUCUUGGUCUUGGUUUAAUACCCGACUCCUCCCAAAUUGAACGAUUAUCUUUGUAUGUCACUCAAAAAUACCAGGUUUCC	0.438
UGAGCACUGCUCUAACAACAAGCAUAAUAUAAAAUUAGUUAGAUUUUGCAAGUCUACAAAUGAGCUCUUGCAACAGAACUCACAGCCUUUUUACUUUUUUCCCCUAACUU	0.695
AGAUGGGGCUUCCCUUAGGAGCCAUAUUCAACUACAGCCUUCUAAAACCUGUGCCCUCAGCCACUUCGAAUGCCAGCCACCUUCUGGUUCUAAAACGGGGAGUGGUCUGA	0.361
ACAAGUGUAUGCUUUCCACUCUGGUUGAUCAUUAGUUCCCUAGUACAUACUUAAAAGUUUACCAAAUGUUAACCAGAUUUUUGAAACCUCCCCCCCCCCCUAUUUAUUUA	1.14
GCCCUGCUGCCAGUCAUCUCCACUGAAUAAAGAAUAAUGCUCCUCUUUCAGGGUAAUAAAGUGGGGAAAAGGAACGUCUUCUCAAUGCAAGAACAUAAGCUUUCUCGUAU	0.34

Excerpt of the above (set 2):
Sequence	E-score
GGACGTAA	-0.27
AGCCGTCA	0.0845
AGCGTCCC	-0.0932
